Measurements gathered from unrelated publications.
A part holds a random share of what one study measured.

Set 1 — method: protein binding microarray; molecule type: double-stranded DNA, one strand shown; sample: in vitro; tested at: not given; relative to: not given; reading: higher = stronger binding
Target: Histone acetyltransferase KAT6A, winged helix 1, GST fusion (KAT6A, Homo sapiens, UniProt Q92794, residues 1-85)
Notes: 8-mer, flanks averaged, mean of 2 arrays, mostly near background
Construct (chain): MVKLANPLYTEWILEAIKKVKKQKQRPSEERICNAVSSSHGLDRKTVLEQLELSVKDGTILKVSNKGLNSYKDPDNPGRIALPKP
`AGACTATC` gave an E-score of -0.0855.
With `TAAGGTCA` the E-score was -0.163.
`CGCATAAG` has an E-score of 0.13.
`CTAGTTGC` has an E-score of -0.126.
`CAGGGACG` has an E-score of 0.0552.
With `AGTGGCCG` the E-score was 0.061.
For `AAGGCATA`, the E-score was -0.204.
For `AGATTTGG`, the E-score was -0.213.
`ACTCCATA` has an E-score of -0.193.
With `AATCGAAA` the E-score was 0.0217.
With `GAACAACC` the E-score was -0.117.
For `GAGTACGC`, the E-score was 0.107.
For `CGCGAAGA`, the E-score was 0.143.
The E-score of `CGCACGAA` is reported as 0.142.
`ACCCAGGC` has an E-score of -0.143.
The E-score of `CATCATCC` is reported as -0.0705.
`TTCTCCAA` gave an E-score of -0.204.
`ACGTGGCA` has an E-score of -0.247.
The E-score of `CTGGGGCC` is reported as 0.0257.
The E-score of `CTGACAAG` is reported as -0.106.

Set 2 — method: RNA Bind-n-Seq; molecule type: RNA; sample: in vitro; tested at: 1 µM; notes: whole 134-nt RNA, ends assumed; added: 150 mM KCl; relative to: input library; reading: higher = stronger binding
Target: Ras GTPase-activating protein-binding protein 1, RRM domain (G3BP1, Homo sapiens, UniProt Q13283)
UniProt Q13283, sequence (whole entry, looked up): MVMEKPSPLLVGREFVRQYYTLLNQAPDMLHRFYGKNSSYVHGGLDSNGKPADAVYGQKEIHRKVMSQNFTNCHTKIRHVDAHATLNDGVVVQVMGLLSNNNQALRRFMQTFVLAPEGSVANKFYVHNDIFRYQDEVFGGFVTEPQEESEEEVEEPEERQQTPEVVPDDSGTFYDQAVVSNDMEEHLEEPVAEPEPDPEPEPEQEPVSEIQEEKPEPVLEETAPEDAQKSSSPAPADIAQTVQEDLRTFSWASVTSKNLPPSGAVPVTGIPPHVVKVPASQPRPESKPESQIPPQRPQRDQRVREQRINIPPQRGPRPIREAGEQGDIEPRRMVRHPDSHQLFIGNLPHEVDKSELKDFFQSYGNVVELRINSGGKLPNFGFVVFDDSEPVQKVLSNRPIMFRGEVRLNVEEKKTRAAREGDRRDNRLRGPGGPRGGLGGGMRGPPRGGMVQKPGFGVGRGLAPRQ
`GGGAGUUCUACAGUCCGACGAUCUGGGAGGUGGAGUUUGUUUAUUUUUUUAGCUCAUUUCCAGGGGUGGGAAUUUUUUUUUAAUAUGUGUCAUGAAUAAAGUUGUUUUUGAAAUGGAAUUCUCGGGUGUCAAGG` has a log2 enrichment of 1.69.
With `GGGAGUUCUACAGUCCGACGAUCGUCCUGUGCUACACAUCGUAUGUACCGAAUCGGUUUUUGGUUUUUGGGGUUUUUGGGGAAAGUAUUAUGUUACGCCGUUCGGAUCUGCACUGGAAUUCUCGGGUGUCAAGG` the log2 enrichment was -0.15.
`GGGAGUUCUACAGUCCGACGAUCCUCAAGUCCUGUGCUACACAUCGUAUGUACCGAAUCGGAAAGGAAAGGAAAGGAAAGUAUUAUGUUACGCCGUUCGGAUCUGCACUUCCAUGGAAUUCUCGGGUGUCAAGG` has a log2 enrichment of -0.262.
`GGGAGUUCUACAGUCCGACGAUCAGUCCUGUGCUACACAUCGUAUGUACCGAAUCGGAAAAAAAGGAAAAAGGAAAAAGGAAAGUAUUAUGUUACGCCGUUCGGAUCUGCACUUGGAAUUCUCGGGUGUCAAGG` gave a log2 enrichment of 0.0116.
The log2 enrichment of `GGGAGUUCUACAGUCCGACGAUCACCAUGCAGGUGGGCAUCUUUGGGAAGUGGGGCAAGGGGGGGAUAGGGAGGGGGGUAACACUUUGGGAACAGGUUGUCCCAGGUCGUUUCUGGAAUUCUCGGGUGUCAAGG` is reported as 1.02.
The log2 enrichment of `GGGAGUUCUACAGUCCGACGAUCCAAGUCCUGUGCUACACAUCGUAUGUACCGAAUCGGAAAAAGGAAAAAGGUUUGGAAAGUAUUAUGUUACGCCGUUCGGAUCUGCACUUCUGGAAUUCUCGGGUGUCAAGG` is reported as -0.218.
For `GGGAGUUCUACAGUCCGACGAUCAGUCCUGUGCUACACAUCGUAUGUACCGAAUCGGGGUUUUUGGUUUUUGGUUUUUGGGAAAGUAUUAUGUUACGCCGUUCGGAUCUGCACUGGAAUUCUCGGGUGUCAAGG`, the log2 enrichment was -0.273.
The log2 enrichment of `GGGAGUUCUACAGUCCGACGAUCAAGUCCUGUGCUACACAUCGUAUGUACCGAAUCGGGCCCCGGGGCCCCGGCCCCGGGAAAGUAUUAUGUUACGCCGUUCGGAUCUGCACUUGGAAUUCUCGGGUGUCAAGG` is reported as -0.817.
For `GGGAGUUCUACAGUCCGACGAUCGUCCUGUGCUACACAUCGUAUGUACCGAAUCGGAAAAAAGGGAAAAAAGGGAAAAAAGGAAAGUAUUAUGUUACGCCGUUCGGAUCUGCAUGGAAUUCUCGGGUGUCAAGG`, the log2 enrichment was 0.135.
With `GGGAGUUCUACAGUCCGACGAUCCUGUGCUACACAUCGUAUGUACCGAAUCGGGUUUUUUGGGGUUUUUUGGGGUUUUUUGGGGAAAGUAUUAUGUUACGCCGUUCGGAUCUGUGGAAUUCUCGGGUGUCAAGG` the log2 enrichment was 0.0609.

Set 3 — method: protein-binding microarray; molecule type: double-stranded DNA, one strand shown; sample: in vitro; tested at: not given; reading: higher = stronger binding
Target: Myc proto-oncogene protein, bHLH-zipper, MAX partner unstated (MYC, Homo sapiens, UniProt P01106, residues 368-449)
UniProt P01106, sequence (368-449, looked up): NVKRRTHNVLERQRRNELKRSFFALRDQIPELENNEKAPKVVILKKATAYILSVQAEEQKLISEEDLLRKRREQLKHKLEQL
Notes: k-mer, scored over probes, only values ≥0.25
`ACCGTGTG` has an E-score of 0.272.
With `GAGCGTGC` the E-score was 0.345.
The E-score of `CGTACCAC` is reported as 0.296.
The E-score of `ACGTGTAG` is reported as 0.4.
With `ACGAGGAA` the E-score was 0.342.
With `CACGCTAA` the E-score was 0.313.
With `AATGTGTC` the E-score was 0.278.
For `CACATGGG`, the E-score was 0.456.
`AAACGTGC` gave an E-score of 0.395.
`CGTGCTAA` gave an E-score of 0.318.
`ATGAGGGG` gave an E-score of 0.313.
With `CCCTCGAG` the E-score was 0.26.
With `CAGCATGC` the E-score was 0.418.
`CATGGCCG` has an E-score of 0.389.
`ACGTGTCT` gave an E-score of 0.416.
With `ACCTTGTG` the E-score was 0.303.
The E-score of `ACCATGCG` is reported as 0.467.
The E-score of `CTGCCCAC` is reported as 0.272.
For `ACCGCCAT`, the E-score was 0.301.
`CGCGTGTC` has an E-score of 0.448.
The E-score of `CGTGGCAG` is reported as 0.398.
For `CTCGTGGC`, the E-score was 0.457.
The E-score of `AGGCCACG` is reported as 0.34.
For `CGACACGC`, the E-score was 0.375.
For `ACACGAGA`, the E-score was 0.336.

Set 4 — method: aptamer microarray, sandwich; molecule type: DNA with 2'F-ANA; sample: in vitro; tested at: 200 nM; added: Cy3 exosite-II aptamer, 400 nM; reading: higher = stronger binding; sequence: GGTTGGTGTGGTTGG
Target: Prothrombin, mature alpha-thrombin (F2, Homo sapiens, UniProt P00734)
Notes: whole 15-mer aptamer, many near background
`2'F-ANA at 1 3 6 11 12`: “mean fluorescence intensity” 435 a.u.
`2'F-ANA at 1 3 5 6 8 9 11 12`: “mean fluorescence intensity” 123 a.u.
Under “mean fluorescence intensity”, `2'F-ANA at 1 3 5 6 7 9 12 13 14 15` is recorded as 45.4 a.u.
For `2'F-ANA at 2 3 4 5 6 8 10 11 15`, “mean fluorescence intensity” read 51.5 a.u.
For `2'F-ANA at 1 3 4 5 7 8 9 10`, “mean fluorescence intensity” read 47.2 a.u.
`2'F-ANA at 1 8 9 11 12 13 15`: “mean fluorescence intensity” 279 a.u.
For `2'F-ANA at 2 3 4 5 6 8 10 13 14`, “mean fluorescence intensity” read 79.4 a.u.
`2'F-ANA at 1 4 6 8 10 12 15`: “mean fluorescence intensity” 56.8 a.u.
Under “mean fluorescence intensity”, `2'F-ANA at 1 5 6 8 15` is recorded as 61.8 a.u.
`2'F-ANA at 3 4 5 14 15` — result for “mean fluorescence intensity”: 51.7 a.u.
Under “mean fluorescence intensity”, `2'F-ANA at 1 2 3 6 8 10 11 12` is recorded as 87.8 a.u.
`2'F-ANA at 1 3 6 7 9 15` — result for “mean fluorescence intensity”: 246 a.u.
`2'F-ANA at 2 5 6 7 9 11 14`: “mean fluorescence intensity” 48.3 a.u.
Under “mean fluorescence intensity”, `2'F-ANA at 2 3 7 9 11 12` is recorded as 876 a.u.
For `2'F-ANA at 1 3 7 9 10 11 12 13 15`, “mean fluorescence intensity” read 111 a.u.
Under “mean fluorescence intensity”, `2'F-ANA at 1 2 5 7 11 12 13 14` is recorded as 49.5 a.u.
Under “mean fluorescence intensity”, `2'F-ANA at 1 2 4 7 8 9 11 14` is recorded as 50.5 a.u.
`2'F-ANA at 2 3 4 6 10 14`: “mean fluorescence intensity” 192 a.u.
`2'F-ANA at 1 2 4 6 7 9 10 12 13 14`: “mean fluorescence intensity” 47 a.u.
`2'F-ANA at 5 8 9 10 11 12 13` — result for “mean fluorescence intensity”: 46.1 a.u.

Excerpt of the above (set 4):
Under “mean fluorescence intensity”, `2'F-ANA at 1 2 3 6 8 10 11 12` is recorded as 87.8 a.u.
`2'F-ANA at 1 3 6 7 9 15` — result for “mean fluorescence intensity”: 246 a.u.
`2'F-ANA at 2 5 6 7 9 11 14`: “mean fluorescence intensity” 48.3 a.u.
Under “mean fluorescence intensity”, `2'F-ANA at 2 3 7 9 11 12` is recorded as 876 a.u.
For `2'F-ANA at 1 3 7 9 10 11 12 13 15`, “mean fluorescence intensity” read 111 a.u.
Under “mean fluorescence intensity”, `2'F-ANA at 1 2 5 7 11 12 13 14` is recorded as 49.5 a.u.
Under “mean fluorescence intensity”, `2'F-ANA at 1 2 4 7 8 9 11 14` is recorded as 50.5 a.u.
